Measurements from different studies.
Each numbered part is a random draw from the data of one study; scales do not carry over between parts. Changes are numbered by the printed parent chain.

Block 1
Target: Interferon regulatory factor 5, full length, phosphomimetic (IRF5, Homo sapiens, UniProt Q13568-2, residues 1-514, K96S/S451D/S453D/S456D/S462D)
Technique: protein-binding microarray
Molecule type: double-stranded DNA, one strand shown
Matrix: in vitro
Tested at: 250 nM
Setting: 60-bp whole probe
Added: salmon DNA 0.4 mg/ml
Relative to: random background probes
Reading: higher = stronger binding
Constant ends, left off below: GCCTAGCAC … GTCTTGATTCGCTTGACGCTGCTG
Sequence | log fluorescence [z-score]
TTAGGAATCCTTTTCCTTTAGTGCTAG | 0.469
TTAGGTATCGGTCTCGTTTAGTGCTAG | 6.99
TTAGATTTCCGTTCCGATTAGTGCTAG | 1.85
GACGATTTCCGACTGGAGACGTGCTAG | 0.362
GACGATTTCAGATTCGAGACGTGCTAG | 0.754
GACGTTCTCGGTCTCGGGACGTGCTAG | 0.507
CATTGCCTATTTTTCACCTGGTGCTAG | 0.364
TTAGGACTGGTTATCGGTTAGTGCTAG | 3.96
TTAGAACTGAGTTTGGATTAGTGCTAG | -0.23
GACGGACTGGGGTTCGGGACGTGCTAG | -0.776
GACGATTTCAGTCTCGAGACGTGCTAG | 1.44
TCAGATTGGTTGAACATACTGTGCTAG | -0.057
TTAGGTCTCCTTATCCTATAGTGCTAG | -0.145
TTAGGCCTGCTTCTCCTTTAGTGCTAG | -0.324
TCACAACTCTGTTTTCGACTGTGCTAG | 2.38
GGCGGTATCGGGTATCGGGACGTGCTA | 3.26
GACGGTATCGGTCTCGGGGCGTGCTAG | 4.94
TCAAATTTGCTTTAGTCACTGTGCTAG | 0.404
GACGAACGGGGGACTGGAGACGTGCTA | -0.228
TCACAATTCTTTTTATGACTGTGCTAG | 1.1
TTACATATCGGGACTGGATTAGTGCTA | 1.47
GCATTTTTCTAACCCATTGAGTGCTAG | 0.555
GACGATTTCGGGTTTCGAGAGGTGCTA | 5.06

Block 2
Target: Histone acetyltransferase KAT6A, both winged helices, GST fusion (KAT6A, Homo sapiens, UniProt Q92794, residues 1-181)
Technique: protein binding microarray
Molecule type: double-stranded DNA, one strand shown
Matrix: in vitro
Tested at: not given
Setting: 8-mer, flanks averaged, mean of 2 arrays, mostly near background
Relative to: not given
Reading: higher = stronger binding
Construct (chain): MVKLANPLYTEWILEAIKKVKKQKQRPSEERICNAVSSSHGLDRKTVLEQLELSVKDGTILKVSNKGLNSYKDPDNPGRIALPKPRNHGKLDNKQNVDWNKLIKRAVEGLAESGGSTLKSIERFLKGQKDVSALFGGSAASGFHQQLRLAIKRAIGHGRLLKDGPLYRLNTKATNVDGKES
Sequence | E-score
GCGTGTAA | 0.103
CGGCTACC | 0.22
AATACTTA | -0.09
CCTCTTCG | 0.0392
AAGAACCG | 0.0661
ACCAGGGT | -0.2
AAATTCTA | -0.0603
GAAGTCCC | 0.0164
AGACCTCA | -0.0679
CATGCAGG | -0.246
AGGTAACT | -0.217
AGTAAATG | -0.0471
GTATCCTA | -0.0854
AGCGTGTA | 0.202
ATGCCCCG | 0.0333
ACGTAACA | -0.0877
AAAAGATA | -0.0266
CAAAGGGC | -0.144

Block 3
Target: Prothrombin, mature alpha-thrombin (F2, Homo sapiens, UniProt P00734)
Technique: aptamer microarray, sandwich
Molecule type: DNA with 2'F-ANA
Matrix: in vitro
Tested at: 200 nM
Setting: whole 15-mer aptamer, many near background
Added: Cy3 exosite-II aptamer, 400 nM
Reading: higher = stronger binding
Sequence: GGTTGGTGTGGTTGG
Modification | mean fluorescence intensity [a.u.]
2'F-ANA at 1 4 8 11 13 | 102
2'F-ANA at 1 3 4 5 6 12 13 14 | 48
2'F-ANA at 3 7 9 11 12 14 | 700
2'F-ANA at 3 6 7 9 10 13 14 15 | 316
2'F-ANA at 2 3 4 7 9 11 13 14 | 233
2'F-ANA at 2 7 8 10 11 12 13 14 15 | 87.4
2'F-ANA at 1 2 3 5 7 8 10 11 12 13 | 111
2'F-ANA at 3 5 6 8 10 11 12 13 | 92.9
2'F-ANA at 1 2 4 9 10 11 15 | 54.8
2'F-ANA at 1 7 10 12 15 | 84.3
2'F-ANA at 3 5 9 12 14 15 | 64
2'F-ANA at 1 2 3 5 6 8 10 13 14 15 | 51.7
2'F-ANA at 1 4 5 8 9 14 | 142
2'F-ANA at 2 3 4 5 6 7 9 10 12 13 14 15 | 62.5
2'F-ANA at 1 3 4 5 6 8 9 12 13 15 | 75.4
2'F-ANA at 1 3 5 7 10 11 15 | 64.5
2'F-ANA at 4 5 8 11 12 13 14 15 | 48.1
2'F-ANA at 1 3 4 6 8 11 13 15 | 147

Block 4
Target: Fragile X messenger ribonucleoprotein 1, C-terminal low-complexity region (Fmr1, Mus musculus, UniProt P35922)
Technique: RNA Bind-n-Seq
Molecule type: RNA
Matrix: in vitro
Tested at: 200 nM
Setting: whole 134-nt RNA, ends assumed
Added: 150 mM KCl
Relative to: input library
Reading: higher = stronger binding
Constant ends, left off below: GGGAGUUCUACAGUCCGACGAUC … UGGAAUUCUCGGGUGUCAAGG
Sequence | log2 enrichment
UGGGAGGUGGAUUUUGUUUAUUUUUUUAGCACAUUUCCAGGGGUGGGAAUUUUUUUUUAAUAUGUGUCAUGAAUAAAGUUGUUUUUGAAA | 0.339
CACAGACAACACGCACCCACACAGACACAGAGGGAAGGGGUUGGGAUGGGGACAGGGUGCACAGCAGGGCGGGGUAGCACCCCAGCCCCU | 1.35
ACCAUACUUGACAACUUCUGAUUGAAUGCCCAUGCCCAAUGCCAACAUCCACGAACGCCAAUGACCAAUGCAGUACAAUGCCAGUGUUUC | -0.268
UGGCCCUGGUGGCAUGCGGGGAGGAAGAGGUGGCCUCAUGGAUCGUGGUGGUCCCGGUGGAAUGUUCAGAGGUGGCCGUAGUGGAGACAG | -0.207
UGUGGACGACAAUGAGGAGACCAUCAAAAAGCGGCUGGAGACCUAUUACAAGGCCACAGAACCUGUCAUCGCCUUCUAUGAGAAACGUGG | -0.733
CACAGACAACACGCACCCACACAGACACAGAGGGAAGGGGUUGAAAUGGGGACAGGGUGCACAGCAGGGCGGGGUAGGACCCCAGCCCCU | 0.641
UCAAGUCCUGUGCUACACAUCGUAUGUACCGAAUCGGGUUUGGGAAAGGGUGGGAAAGUAUUAUGUUACGCCGUUCGGAUCUGCACUUCC | 1.24
UAACUUUAGAGGAGGAUCUGAUGGAUAUGGCAGUGGACGUGGAUUUGGGGAUGGCUAUAAUGGGUAUGGAGGGGGACCUGGAGGUGGCAA | 0.28
UAAGAAGGAAAUUGAGAGGAGAAAAACUGGAAAAGAAAUGUUGGAUUAUAAAAGAAAACAAGAAGAAGAAUUAACAAAAAGAAUGCUGGA | -0.594
ACCAUGCAGGUGGGCAUCUUUGGGAAGUGGGGCAAGGGGGGGAUAGGGAGGGGGGUAACACUUUGGGAACAGGUGGUCCUAGGUCGUUUC | 0.634
UCCUGUGCUACACAUCGUAUGUACCGAAUCGGGAAAAAAAGGGUUUUUGGGUUUUUGGGAAAGUAUUAUGUUACGCCGUUCGGAUCUGCA | -0.149
CGGCAGUAGCAGCAGCGCCGGGUCCCGUGCGGAGGUGCUCCUCGCAGAGUUGUUUCUCGAGCAGCGGCAGUUCUCACUACAGCGCCAGGA | -0.504
UCCUGUGCUACACAUCGUAUGUACCGAAUCGGGUUUUUUUGGGAAAGGGUUUUUUUGGGAAAGUAUUAUGUUACGCCGUUCGGAUCUGCA | -0.107
UGGGAGGUGGAUUUUGUUUAUUUUUUUAGCUCAUUUCCAGGGGUGGGAAUUUUUUUUUAAUAUGUGUCCUGAAUAAAGUUGUUUUUGAAA | 0.241

Block 5
Target: CCND2, cyclin fold, Cln2 fusion (human)
Technique: yeast growth competition, sequencing
Matrix: yeast
Setting: strong parent motif
Relative to: not given
Reading: higher = stronger binding
Starting sequence: INSM1 docking peptide (human); PKAIRKLHFEDEV; partner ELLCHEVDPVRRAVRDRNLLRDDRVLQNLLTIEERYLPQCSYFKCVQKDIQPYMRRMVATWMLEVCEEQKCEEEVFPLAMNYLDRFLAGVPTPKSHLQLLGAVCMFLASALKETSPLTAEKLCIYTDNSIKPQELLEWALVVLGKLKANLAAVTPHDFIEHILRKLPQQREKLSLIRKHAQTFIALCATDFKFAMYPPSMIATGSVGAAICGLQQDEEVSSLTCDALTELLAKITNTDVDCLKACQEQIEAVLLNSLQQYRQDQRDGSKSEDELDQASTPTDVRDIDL
Change | normalised enrichment score
PKAIRKLHFEDDV [E12D] | 2.43
PKAIRKLSFEDEV [H8S] | 2.88
PKAIRKLHFEDYV [E12Y] | 1.68
PKAIRKLHNEDEV [F9N] | 0.117
PKAIRKLHFEDAV [E12A] | 1.97
PKAIKKLHFEDEV [R5K] | 0.863
PKAIRKLHFCDEV [E10C] | 1.75
PKAIRKWHFEDEV [L7W] | -0.227
PYAIRKLHFEDEV [K2Y] | 1.46
PKAIRQLHFEDEV [K6Q] | 2.06
PKADRKLHFEDEV [I4D] | -0.011
PKAIRKLHLEDEV [F9L] | 0.481
PIAIRKLHFEDEV [K2I] | 1.15
PKAIRSLHFEDEV [K6S] | 0.647
PKAIRKLHFYDEV [E10Y] | 1.1
PKAIRKGHFEDEV [L7G] | -0.0155
PKAIQKLHFEDEV [R5Q] | 0.701
PKAIRKLHDEDEV [F9D] | -0.442
PKAIRVLHFEDEV [K6V] | 1.71
PKAIRKLHREDEV [F9R] | 0.0851
PKAIRKLHQEDEV [F9Q] | 0.00177
PKAIRKLHFHDEV [E10H] | 1.14
PKAIPKLHFEDEV [R5P] | -0.0231
PKAIRMLHFEDEV [K6M] | 1.4
PKAIRKLHFWDEV [E10W] | 0.488

Some of these lines once more (block 1):
Sequence | log fluorescence [z-score]
TTAGGACTGGTTATCGGTTAGTGCTAG | 3.96
TTAGAACTGAGTTTGGATTAGTGCTAG | -0.23
GACGGACTGGGGTTCGGGACGTGCTAG | -0.776
GACGATTTCAGTCTCGAGACGTGCTAG | 1.44
TCAGATTGGTTGAACATACTGTGCTAG | -0.057
TTAGGTCTCCTTATCCTATAGTGCTAG | -0.145
TTAGGCCTGCTTCTCCTTTAGTGCTAG | -0.324
TCACAACTCTGTTTTCGACTGTGCTAG | 2.38
GGCGGTATCGGGTATCGGGACGTGCTA | 3.26
GACGGTATCGGTCTCGGGGCGTGCTAG | 4.94
TCAAATTTGCTTTAGTCACTGTGCTAG | 0.404
GACGAACGGGGGACTGGAGACGTGCTA | -0.228
TCACAATTCTTTTTATGACTGTGCTAG | 1.1
TTACATATCGGGACTGGATTAGTGCTA | 1.47
GCATTTTTCTAACCCATTGAGTGCTAG | 0.555
